{"data": "Published values of several laboratories", "SIRT6": "NAD-dependent protein deacylase sirtuin-6 (SIRT6, Homo sapiens, UniProt Q8N6T7)", "PTAFR": "Platelet-activating factor receptor (PTAFR, Homo sapiens, UniProt P25105)", "HDAC1": "Histone deacetylase 1 (HDAC1, Homo sapiens, UniProt Q13547)", "CTSL": "Procathepsin L (CTSL, Homo sapiens, UniProt P07711)", "Faah": "Fatty-acid amide hydrolase 1 (Faah, Mus musculus, UniProt O08914)", "TRPM7": "Transient receptor potential cation channel subfamily M member 7 (TRPM7, Homo sapiens, UniProt Q96QT4)", "note": "± gives the spread as reported.", "chain of UniProt P07711 (whole entry, looked up)": "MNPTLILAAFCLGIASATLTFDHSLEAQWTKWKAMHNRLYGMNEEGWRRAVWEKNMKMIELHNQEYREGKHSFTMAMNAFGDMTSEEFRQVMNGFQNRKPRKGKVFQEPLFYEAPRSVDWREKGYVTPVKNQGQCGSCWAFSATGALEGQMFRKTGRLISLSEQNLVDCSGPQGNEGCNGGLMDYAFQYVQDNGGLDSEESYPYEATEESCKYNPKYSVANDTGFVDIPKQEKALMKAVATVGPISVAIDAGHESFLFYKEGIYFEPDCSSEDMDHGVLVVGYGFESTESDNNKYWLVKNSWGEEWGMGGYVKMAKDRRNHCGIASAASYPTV", "chain of UniProt Q13547 (whole entry, looked up)": "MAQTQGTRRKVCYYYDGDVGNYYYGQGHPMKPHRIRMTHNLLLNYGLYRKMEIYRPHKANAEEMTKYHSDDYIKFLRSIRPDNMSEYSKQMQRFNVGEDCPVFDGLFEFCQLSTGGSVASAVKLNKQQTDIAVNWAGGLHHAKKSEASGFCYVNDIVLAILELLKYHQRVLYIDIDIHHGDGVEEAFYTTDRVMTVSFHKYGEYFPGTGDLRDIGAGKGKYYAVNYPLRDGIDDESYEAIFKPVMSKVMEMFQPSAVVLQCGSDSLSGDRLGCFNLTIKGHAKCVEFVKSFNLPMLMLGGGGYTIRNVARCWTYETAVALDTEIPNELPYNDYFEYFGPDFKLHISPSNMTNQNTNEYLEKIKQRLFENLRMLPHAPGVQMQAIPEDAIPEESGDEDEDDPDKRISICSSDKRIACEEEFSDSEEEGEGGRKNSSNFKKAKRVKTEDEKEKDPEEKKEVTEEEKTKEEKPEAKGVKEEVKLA", "chain of UniProt Q8N6T7 (whole entry, looked up)": "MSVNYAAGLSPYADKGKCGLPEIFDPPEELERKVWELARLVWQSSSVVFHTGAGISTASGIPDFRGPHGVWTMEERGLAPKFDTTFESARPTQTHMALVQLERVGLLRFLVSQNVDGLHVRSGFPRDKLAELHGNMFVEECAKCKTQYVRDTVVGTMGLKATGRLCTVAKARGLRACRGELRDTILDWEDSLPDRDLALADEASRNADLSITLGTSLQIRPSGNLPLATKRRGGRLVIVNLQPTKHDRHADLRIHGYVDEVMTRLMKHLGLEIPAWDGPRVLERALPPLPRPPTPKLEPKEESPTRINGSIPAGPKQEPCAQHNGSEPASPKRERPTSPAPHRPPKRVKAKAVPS", "chain of UniProt Q96QT4 (whole entry, looked up)": "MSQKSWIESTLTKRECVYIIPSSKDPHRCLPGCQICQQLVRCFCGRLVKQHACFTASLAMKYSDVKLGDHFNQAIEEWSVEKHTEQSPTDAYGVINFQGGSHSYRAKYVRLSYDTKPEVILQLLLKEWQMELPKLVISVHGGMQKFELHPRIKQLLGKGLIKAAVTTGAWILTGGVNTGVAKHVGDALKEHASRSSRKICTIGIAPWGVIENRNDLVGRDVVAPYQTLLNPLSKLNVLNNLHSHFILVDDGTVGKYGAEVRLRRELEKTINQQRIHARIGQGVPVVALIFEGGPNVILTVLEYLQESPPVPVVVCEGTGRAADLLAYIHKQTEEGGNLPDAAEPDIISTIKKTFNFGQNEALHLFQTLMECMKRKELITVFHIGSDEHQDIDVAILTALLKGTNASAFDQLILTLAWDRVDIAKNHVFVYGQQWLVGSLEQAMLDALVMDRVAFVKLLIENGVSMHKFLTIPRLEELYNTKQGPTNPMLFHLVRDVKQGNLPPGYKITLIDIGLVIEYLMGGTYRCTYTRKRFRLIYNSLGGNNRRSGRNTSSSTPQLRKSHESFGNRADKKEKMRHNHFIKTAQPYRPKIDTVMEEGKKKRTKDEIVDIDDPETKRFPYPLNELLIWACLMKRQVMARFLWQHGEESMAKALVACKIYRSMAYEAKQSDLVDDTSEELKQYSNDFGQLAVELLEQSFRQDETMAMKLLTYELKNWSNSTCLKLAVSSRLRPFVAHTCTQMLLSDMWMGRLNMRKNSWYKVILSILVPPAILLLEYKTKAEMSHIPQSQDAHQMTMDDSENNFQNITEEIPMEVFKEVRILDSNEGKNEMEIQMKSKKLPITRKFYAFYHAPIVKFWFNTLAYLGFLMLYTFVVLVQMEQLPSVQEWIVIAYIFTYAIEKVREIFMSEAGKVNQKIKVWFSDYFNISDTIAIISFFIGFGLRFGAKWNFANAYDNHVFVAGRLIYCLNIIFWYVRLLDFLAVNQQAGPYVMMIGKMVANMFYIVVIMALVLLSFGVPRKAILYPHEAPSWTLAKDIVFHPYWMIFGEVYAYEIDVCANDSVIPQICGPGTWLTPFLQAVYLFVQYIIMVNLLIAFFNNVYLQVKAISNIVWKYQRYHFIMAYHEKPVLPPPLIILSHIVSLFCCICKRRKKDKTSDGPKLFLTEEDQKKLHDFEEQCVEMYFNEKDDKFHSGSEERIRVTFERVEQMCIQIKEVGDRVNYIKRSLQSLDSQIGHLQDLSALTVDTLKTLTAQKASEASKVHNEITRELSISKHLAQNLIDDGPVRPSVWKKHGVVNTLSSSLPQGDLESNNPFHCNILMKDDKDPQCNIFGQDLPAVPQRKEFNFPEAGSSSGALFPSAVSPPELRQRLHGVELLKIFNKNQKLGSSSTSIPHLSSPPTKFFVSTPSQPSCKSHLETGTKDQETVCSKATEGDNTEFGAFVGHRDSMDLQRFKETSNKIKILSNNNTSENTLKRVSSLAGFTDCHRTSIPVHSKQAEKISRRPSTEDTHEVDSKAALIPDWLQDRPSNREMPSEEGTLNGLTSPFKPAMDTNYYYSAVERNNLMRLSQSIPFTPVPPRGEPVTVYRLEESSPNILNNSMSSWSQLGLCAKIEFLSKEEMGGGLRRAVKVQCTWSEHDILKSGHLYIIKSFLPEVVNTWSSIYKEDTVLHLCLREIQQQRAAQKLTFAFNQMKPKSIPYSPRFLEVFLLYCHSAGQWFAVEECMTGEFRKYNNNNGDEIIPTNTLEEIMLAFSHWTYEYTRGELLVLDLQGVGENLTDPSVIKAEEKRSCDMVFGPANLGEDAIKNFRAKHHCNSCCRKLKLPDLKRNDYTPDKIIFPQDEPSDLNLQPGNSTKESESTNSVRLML", "chain of UniProt O08914 (whole entry, looked up)": "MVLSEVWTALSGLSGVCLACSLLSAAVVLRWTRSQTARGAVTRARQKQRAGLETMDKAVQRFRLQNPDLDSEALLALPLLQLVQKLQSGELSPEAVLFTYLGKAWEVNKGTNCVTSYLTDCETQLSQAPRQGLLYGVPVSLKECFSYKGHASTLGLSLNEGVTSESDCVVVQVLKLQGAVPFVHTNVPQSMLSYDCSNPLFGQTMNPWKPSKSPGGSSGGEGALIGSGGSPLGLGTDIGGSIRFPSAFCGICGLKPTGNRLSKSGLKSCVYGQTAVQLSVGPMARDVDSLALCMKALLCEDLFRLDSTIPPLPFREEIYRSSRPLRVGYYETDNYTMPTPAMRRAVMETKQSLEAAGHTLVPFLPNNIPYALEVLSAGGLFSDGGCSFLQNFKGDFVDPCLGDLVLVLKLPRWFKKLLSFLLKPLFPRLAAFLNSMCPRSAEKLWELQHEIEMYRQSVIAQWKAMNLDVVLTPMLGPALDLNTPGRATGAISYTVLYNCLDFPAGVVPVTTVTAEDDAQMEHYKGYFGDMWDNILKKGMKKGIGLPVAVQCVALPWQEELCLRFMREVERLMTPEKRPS", "chain of UniProt P25105 (whole entry, looked up)": "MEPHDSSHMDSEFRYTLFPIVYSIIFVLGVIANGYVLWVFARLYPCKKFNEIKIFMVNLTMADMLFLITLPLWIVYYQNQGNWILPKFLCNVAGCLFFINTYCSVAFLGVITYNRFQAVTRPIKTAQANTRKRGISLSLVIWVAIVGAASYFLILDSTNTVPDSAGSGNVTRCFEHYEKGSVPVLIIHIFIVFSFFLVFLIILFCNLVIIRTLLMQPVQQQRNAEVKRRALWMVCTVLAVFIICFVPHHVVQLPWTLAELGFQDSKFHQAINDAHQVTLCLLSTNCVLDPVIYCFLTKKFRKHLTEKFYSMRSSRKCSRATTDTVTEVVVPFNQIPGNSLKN", "chain of UniProt Q16644 (whole entry, looked up)": "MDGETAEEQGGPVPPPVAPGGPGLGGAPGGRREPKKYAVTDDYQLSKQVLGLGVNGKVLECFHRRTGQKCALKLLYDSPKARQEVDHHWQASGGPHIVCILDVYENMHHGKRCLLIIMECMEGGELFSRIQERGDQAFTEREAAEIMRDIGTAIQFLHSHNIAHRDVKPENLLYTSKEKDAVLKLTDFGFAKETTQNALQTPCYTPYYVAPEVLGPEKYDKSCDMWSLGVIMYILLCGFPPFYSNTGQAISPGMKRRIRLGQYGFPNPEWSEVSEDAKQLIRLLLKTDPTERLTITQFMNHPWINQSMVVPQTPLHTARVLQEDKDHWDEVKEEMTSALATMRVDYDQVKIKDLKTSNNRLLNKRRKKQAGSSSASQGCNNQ", "chain of UniProt P28335 (whole entry, looked up)": "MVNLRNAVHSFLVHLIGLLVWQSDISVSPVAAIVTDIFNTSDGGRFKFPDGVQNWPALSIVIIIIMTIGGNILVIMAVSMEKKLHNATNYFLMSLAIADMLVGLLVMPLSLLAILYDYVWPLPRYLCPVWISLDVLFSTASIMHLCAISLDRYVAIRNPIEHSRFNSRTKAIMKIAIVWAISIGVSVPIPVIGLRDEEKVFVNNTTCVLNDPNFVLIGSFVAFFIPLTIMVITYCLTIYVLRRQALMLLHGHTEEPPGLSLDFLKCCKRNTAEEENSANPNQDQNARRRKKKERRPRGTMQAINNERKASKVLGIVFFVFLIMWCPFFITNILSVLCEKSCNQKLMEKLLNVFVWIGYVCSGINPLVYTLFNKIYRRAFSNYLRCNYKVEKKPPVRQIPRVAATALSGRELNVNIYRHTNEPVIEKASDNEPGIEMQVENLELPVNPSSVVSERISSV"}
{"SMILES": "O=C(Nc1ccc(C(F)F)cc1)[C@H](CC1CCCCC1)Nc1nn2c(=O)ccnc2s1", "target": "Tyrosine-protein phosphatase non-receptor type 22 (PTPN22, Homo sapiens, UniProt Q9Y2R2)", "assay": "enzyme activity, inhibitor", "conditions": "10 µM", "inhibition [%]": 22}
{"SMILES": "O=C(NC1CCC1)[C@H](Cc1c[nH]c2ccccc12)NC(=O)[C@H](CCCCNC(=S)NCCc1noc(=O)[nH]1)NS(=O)(=O)c1cccc(F)c1", "target": "SIRT6", "assay": "demyristoylase activity", "conditions": "10 µM, added: myristoylated peptide substrate and NAD+ 500 µM", "inhibition [%]": "< 0"}
{"SMILES": "CN(Cc1ccc(/C=C/C(=O)NO)cc1)CC12CC3CC(CC(C3)C1)C2", "target": "human beta2 adrenoceptor", "assay": "agonist radioligand binding", "conditions": "0.05 µM", "inhibition [%]": 0}
{"SMILES": "O=C1c2sc(-c3ccc(N4CCC(CO)CC4)nc3F)nc2CCN1c1cccnc1", "target": "PTAFR", "assay": "ligand displacement, radioligand", "conditions": "1 µM", "inhibition [%]": -19}
{"SMILES": "Cc1c(COc2cc(OCc3cccc(C#N)c3)c(CNC(CO)CO)cc2Cl)cccc1-c1cccc(OCCCCCC(=O)NO)c1", "target": "HDAC1", "assay": "enzyme activity, inhibitor", "conditions": "1 µM", "inhibition [%]": 57}
{"SMILES": "Cc1[nH]nc2c1N=C(c1ccccc1Cl)c1cnc(N3CCOCC3)cc1N2", "target": "PTAFR", "assay": "cell-free assay", "conditions": "10 µM", "inhibition [%]": 6}
{"SMILES": "Brc1ccccc1-c1nnc(CSc2nnnn2-c2ccccc2)o1", "target": "5-hydroxytryptamine receptor 2C (HTR2C, Homo sapiens, UniProt P28335)", "assay": "ligand displacement, radioligand", "conditions": "10 µM", "inhibition [%]": 19}
{"SMILES": "Cc1ccc(CNC(=O)[C@H](CCc2ccccc2)NC(=O)[C@H](CCc2ccccc2)NC(=O)Cc2cccc(Oc3ccccc3)c2)cc1", "target": "CTSL", "assay": "enzyme activity, inhibitor", "conditions": "100 µM", "inhibition [%]": 5}
{"SMILES": "CCn1cc(-c2cccc(C(F)(F)F)c2)c2sc(C(=N)NC3CCS(=O)(=O)CC3)cc2c1=O", "target": "CREB-binding protein (CREBBP, Homo sapiens, UniProt Q92793)", "conditions": "1 µM", "inhibition [%]": -5.2}
{"SMILES": "CCCCCCCCCCCCNC(=S)NCCCC[C@H](NS(C)(=O)=O)C(=O)N[C@H](C)C(=O)N[C@@H](CCCNC(=N)N)C(N)=O", "target": "SIRT6", "assay": "enzyme activity, inhibitor", "conditions": "10 µM", "inhibition [%]": 14}
{"SMILES": "Cc1c(COc2cc(OCc3cccc(C#N)c3)c(CN3CCCC[C@@H]3C(=O)O)cc2Cl)cccc1-c1cccc(OCc2ccc(C(=O)NO)cc2)c1", "target": "HDAC1", "assay": "enzyme activity, inhibitor", "conditions": "1 µM", "inhibition [%]": 41.6}
{"SMILES": "O=C(N1CCCC1)n1ccnn1", "target": "Faah", "assay": "serine hydrolase activity, inhibitor, competitive gel-based ABPP", "test system": "mouse T-cell proteome", "conditions": "1 µM, 30 min, 37 °C", "inhibition [%]": "> 95"}
{"SMILES": "C=CC(=O)N1Cc2nc(-c3cc(-c4cc(Cl)cnc4Cl)c(F)cc3F)n(-c3ccncn3)c2C1", "target": "Dual specificity testis-specific protein kinase 2 (TESK2, Homo sapiens, UniProt Q96S53)", "assay": "cell-free assay, inhibitor", "conditions": "1 µM", "inhibition [%]": -3.8}
{"SMILES": "O=C(O)Cc1ccccc1CC(=O)O", "target": "Signal transducer and activator of transcription 5B, SH2 (STAT5B, Homo sapiens, UniProt P51692)", "assay": "ligand displacement, FP", "conditions": "100 µM", "inhibition [%]": -3}
{"SMILES": "CN(C)C/C=C/C(=O)Nc1ccc2nc(NCCCCCN(C)C)nc(NCCCCCCN(C)C)c2c1", "target": "Protein arginine N-methyltransferase 7 (PRMT7, Homo sapiens, UniProt Q9NVM4)", "assay": "enzyme activity, inhibitor, radiometric", "conditions": "50 µM", "inhibition [%]": 85}
{"SMILES": "N#Cc1c(Nc2ccccc2C(F)(F)F)s[nH]c1=O", "target": "Nicotinamide phosphoribosyltransferase (NAMPT, Homo sapiens, UniProt P43490)", "assay": "enzyme activity, inhibitor", "conditions": "10 µM", "inhibition [%]": 3}
{"SMILES": "Cc1c(COc2cc(OCc3cccc(C#N)c3)c(CNCCO)cc2Cl)cccc1-c1cccc(OCc2ccc(C(=O)NO)cc2)c1", "target": "HDAC1", "assay": "enzyme activity, inhibitor", "conditions": "1 µM", "inhibition [%]": 20.8}
{"SMILES": "CC(C)C[C@H](NC(=O)[C@H](CCC(N)=O)NC(=O)[C@H](CCCCN)NC(=O)[C@H](CCCNC(=N)N)NC(=O)[C@@H]1CCCN1C(=O)[C@H](C)NC(=O)[C@@H](N)CCCCN)C(=O)N[C@@H](C)C(=O)N[C@H](C(=O)N[C@@H](CCCCN)C(=O)N[C@@H](C)C(=O)N[C@@H](C)C(=O)N[C@@H](CCCNC(=N)N)C(=O)N[C@@H](CCCCN(C)C)C(=O)N[C@@H](CO)C(=O)N[C@@H](C)C(=O)N1CCC[C@H]1C(=O)N[C@@H](C)C(=O)O)[C@@H](C)O", "target": "CTSL", "assay": "enzyme activity, inhibitor", "conditions": "25 µM, pH 6.0, 25 °C, added: Z-LR-Mca at 0.16 x Km", "inhibition [%]": "85 ± 0.1"}
{"SMILES": "Cc1c(COc2cc(OCc3cccc(C#N)c3)c(CN3CCCC[C@H]3C(=O)O)cc2Cl)cccc1-c1cccc(OCCCCCC(=O)NO)c1", "target": "HDAC1", "assay": "enzyme activity, inhibitor", "conditions": "1 µM", "inhibition [%]": 78}
{"SMILES": "COc1ccc(S(=O)(=O)N2CCc3ccccc3C2)cc1N1CCN(C(=O)c2ccc(F)cc2C(F)(F)F)CC1", "target": "Receptor-type tyrosine-protein phosphatase C (PTPRC, Homo sapiens, UniProt P08575)", "assay": "enzyme activity, inhibitor", "conditions": "1 µM", "inhibition [%]": -0.9}
{"SMILES": "COc1ccc(C[C@H](NC(=O)Cc2cccc(Oc3ccccc3)c2)C(=O)N[C@@H](Cc2c[nH]c3ccccc23)C(=O)NCc2ccc(C)cc2)cc1OC", "target": "CTSL", "assay": "enzyme activity, inhibitor", "conditions": "100 µM", "inhibition [%]": 22}
{"SMILES": "CCCCCCCCCCCCNC(=S)NCCCC[C@H](NC(=O)OCc1ccccc1)C(=O)N[C@@H](Cc1c[nH]c2ccccc12)C(=O)NC(C)C", "target": "SIRT6", "assay": "enzyme activity, inhibitor", "conditions": "10 µM, added: myristoylated substrate", "inhibition [%]": "< 5"}
{"SMILES": "O=C(NO)c1cc(F)cc(OS(=O)(=O)Oc2ccc3ccccc3c2)c1", "target": "HDAC1", "assay": "enzyme activity, inhibitor, fluorescence", "conditions": "5 µM", "inhibition [%]": 13}
{"SMILES": "CN1CCN(Cc2ccc(-c3ccc(CO[C@H]4CCC[C@@H]4NC(=O)c4cc(-c5cnn(C)c5)cnc4N)cc3)cc2)CC1", "target": "Phosphatidylinositol 4-kinase alpha (PI4KA, Homo sapiens, UniProt P42356)", "assay": "enzyme activity, inhibitor", "conditions": "0.1 µM", "inhibition [%]": 1}
{"SMILES": "CC[C@H](C)[C@@H]1NC(=O)[C@H](Cc2ccccc2)NC(=O)CCSCc2cccc(c2)CSCCNC(=O)[C@H](Cc2c[nH]cn2)NC(=O)[C@H](Cc2ccc(O)cc2)NC(=O)[C@H](CC(=O)O)NC(=O)[C@H](Cc2ccc(F)cc2)NC(=O)[C@H](CC(C)C)NC(=O)[C@H](CCCCN)NC1=O", "target": "Melanoma-associated antigen 4, MHD; with RAD18 (Homo sapiens, UniProt P43358)", "assay": "protein-protein interaction, NanoBRET", "test system": "HEK293", "conditions": "20 µM", "inhibition [%]": "> 50"}
{"SMILES": "C=CC(=O)Nc1cccc(-c2cnc3[nH]cc(C(=O)NC(C)(C)C)c3n2)c1", "target": "Eukaryotic translation initiation factor 2-alpha kinase 3 (EIF2AK3, Homo sapiens, UniProt Q9NZJ5)", "assay": "enzyme activity, inhibitor", "conditions": "0.1 µM", "inhibition [%]": 5}
{"SMILES": "C[Si]1(C[C@H](CN)CC(=O)O)CCCC1", "target": "GABA transporter, rat", "assay": "binding, radioligand binding", "conditions": "70 µM, added: [3H]GABA", "inhibition [%]": -7}
{"SMILES": "CCn1cc(C(=O)O)c(=O)c2c(N)c(F)c(NC3CCCCC3)cc21", "target": "TRPM7", "assay": "kinase activity", "conditions": "0.1 µM, added: ATP at Km", "inhibition [%]": -2.2}
{"SMILES": "CC(C)C[C@H](NC(=O)[C@H](CC(C)C)NC(=O)CNC(=O)[C@H](C)NC(=O)[C@H](C)NC(=O)[C@@H](CCCNC(=N)N)NC(=O)CNC(=O)CCCCNC(=O)CCCCNC(=O)CCCCNC(=O)[C@H](CCCCN)NC(=O)[C@H](Cc1ccc(O)cc1)NC(=O)[C@@H](N)Cc1c[nH]c2ccccc12)C(N)=O", "target": "Neuropeptides B/W receptor type 1 (NPBWR1, Homo sapiens, UniProt P48145)", "assay": "calcium signal, antagonist", "conditions": "10 µM", "inhibition [%]": 63}
{"SMILES": "COCC(=O)N1CCc2cc(-c3csc(NC(=O)c4cc(OC)cc(OC)c4)n3)ccc21", "target": "Interleukin-1 receptor type 1 (Il1r1, Mus musculus, UniProt P13504)", "assay": "binding, radioligand binding", "test system": "mouse", "conditions": "10 µM", "inhibition [%]": -10}
{"SMILES": "CN(C(=O)n1ccnn1)c1ccccc1", "target": "Faah", "assay": "serine hydrolase activity, inhibitor, competitive gel-based ABPP", "test system": "mouse T-cell proteome", "conditions": "1 µM, 30 min, 37 °C", "inhibition [%]": "> 95"}
{"SMILES": "Cc1c(COc2cc(OCc3cccc(C#N)c3)c(CNCCO)cc2Cl)cccc1-c1cccc(OCc2ccc(/C=C/C(=O)NO)cc2)c1", "target": "HDAC1", "assay": "enzyme activity, inhibitor", "conditions": "1 µM", "inhibition [%]": 9.87}
{"SMILES": "C[Si](C)(C)C[C@H](CN)CC(=O)O", "target": "Glutamate receptor ionotropic, NMDA 1 (Grin1, Rattus norvegicus, UniProt P35439)", "assay": "ligand displacement, radioligand", "conditions": "250 µM", "inhibition [%]": -3}
{"SMILES": "CC[C@H](C)[C@@H]1NC(=O)[C@H](Cc2ccccc2C(F)(F)F)NC(=O)CCSCc2cccc(n2)CSCCCNC(=O)[C@H](CCCCCC(=O)O)NC1=O", "target": "HDAC1", "conditions": "30 µM", "inhibition [%]": 30}
{"SMILES": "COc1cc(-n2cc3cc(F)cc(C(N)=O)c3n2)cc(Cl)c1C1CC(O)(CCO)Cc2ccccc21 (stereo not drawn)", "target": "Protein mono-ADP-ribosyltransferase PARP14 (PARP14, Homo sapiens, UniProt Q460N5)", "assay": "enzyme activity, inhibitor", "conditions": "10 µM", "inhibition [%]": 1.23}
{"SMILES": "O=C1c2sc(-c3ccc(N4CCC(F)C4)nc3F)nc2CCN1c1cccnc1 (stereo not drawn)", "target": "Delta-type opioid receptor (OPRD1, Homo sapiens, UniProt P41143)", "assay": "ligand displacement, radioligand", "conditions": "1 µM", "inhibition [%]": 15}
{"SMILES": "Cc1nc2c(F)cc(-c3nc(Nc4ccc(CNC(=O)CCCCCCC(=O)NO)cc4)ncc3F)cc2n1C(C)C", "target": "TRPM7", "assay": "kinase activity", "conditions": "1 µM", "inhibition [%]": 11}
{"SMILES": "Cc1cccc(O[C@H]2CCC[C@@H](C(C)CNCc3ccncc3)C2)c1 (relative stereo)", "target": "MAP kinase-activated protein kinase 3 (MAPKAPK3, Homo sapiens, UniProt Q16644)", "assay": "enzyme activity, inhibitor", "conditions": "10 µM", "inhibition [%]": -12}
{"SMILES": "COc1cc(-c2cn(C)c(=O)c3cnccc23)cc(OC)c1CN(C)C", "target": "Peregrin (BRPF1, Homo sapiens, UniProt P55201)", "conditions": "1 µM", "inhibition [%]": 0.7}
{"note": "Some of these lines once more:"}
{"SMILES": "Cc1c(COc2cc(OCc3cccc(C#N)c3)c(CNCCO)cc2Cl)cccc1-c1cccc(OCc2ccc(/C=C/C(=O)NO)cc2)c1", "target": "HDAC1", "assay": "enzyme activity, inhibitor", "conditions": "1 µM", "inhibition [%]": 9.87}
{"SMILES": "C[Si](C)(C)C[C@H](CN)CC(=O)O", "target": "Glutamate receptor ionotropic, NMDA 1 (Grin1, Rattus norvegicus, UniProt P35439)", "assay": "ligand displacement, radioligand", "conditions": "250 µM", "inhibition [%]": -3}
{"SMILES": "CC[C@H](C)[C@@H]1NC(=O)[C@H](Cc2ccccc2C(F)(F)F)NC(=O)CCSCc2cccc(n2)CSCCCNC(=O)[C@H](CCCCCC(=O)O)NC1=O", "target": "HDAC1", "conditions": "30 µM", "inhibition [%]": 30}
{"SMILES": "COc1cc(-n2cc3cc(F)cc(C(N)=O)c3n2)cc(Cl)c1C1CC(O)(CCO)Cc2ccccc21 (stereo not drawn)", "target": "Protein mono-ADP-ribosyltransferase PARP14 (PARP14, Homo sapiens, UniProt Q460N5)", "assay": "enzyme activity, inhibitor", "conditions": "10 µM", "inhibition [%]": 1.23}
{"SMILES": "O=C1c2sc(-c3ccc(N4CCC(F)C4)nc3F)nc2CCN1c1cccnc1 (stereo not drawn)", "target": "Delta-type opioid receptor (OPRD1, Homo sapiens, UniProt P41143)", "assay": "ligand displacement, radioligand", "conditions": "1 µM", "inhibition [%]": 15}
